Measured values from different studies.
Observed: DPPH scavenging

CCCCSc1nnc(-c2ccccc2)o1
IC50: 62.1 µM

N#C/C(=C\c1cn(-c2ccccc2)nc1-c1ccc(Br)cc1)c1nc2ccccc2[nH]1
IC50 (absorbance): 10.6 µM

CCCCSc1nnc(-c2ccccc2Cl)o1
IC50: 68.2 µM

COc1cc(CN2CCN(c3ccc(C)cc3)CC2)c2cc3[n+](cc2c1O)CCc1cc2c(cc1-3)OCO2
IC50 (absorbance; 30 min): 19.3 µg/mL

N#C/C(=C\c1cn(-c2ccccc2)nc1-c1ccccc1)c1nc2ccccc2[nH]1
IC50 (absorbance): 34.8 µM

COc1cccc(C2NC(=O)NC(C)=C2C(C)=O)c1 (stereo not shown)
IC50: 86.4 µM

CCOC(=O)c1nn(-c2ccccc2)c2nc3nc(-c4ccccc4)cc(-c4ccc5ccccc5n4)c3c(=O)n12
IC50 (absorbance; 30 min): 138 µM

c1ccc(-n2c(-c3ccco3)nc3ccccc32)cc1
IC50 (absorbance): 1.61 µM

N#C/C(=C\c1cn(-c2ccccc2)nc1-c1cccc(Br)c1)c1nc2ccccc2[nH]1
IC50 (absorbance): 96 µM

Sc1nnc(-c2ccccc2)o1
IC50: 90 µM

CC(=O)C1=C(C)NC(=O)NC1c1cccc(Br)c1 (stereo not shown)
IC50: 233 µM

COc1cc(CN2CCN(c3ccc(Cl)cc3)CC2)c2cc3[n+](cc2c1O)CCc1cc2c(cc1-3)OCO2
IC50 (absorbance; 30 min): 12.2 µg/mL

CCCCn1cc(C(=O)O)c(=O)c2cc(F)c(Nc3cccc(OC)c3)c(N)c21
IC50 (absorbance; 30 min): 3.61 µM

CC(=O)C1=C(C)NC(=O)NC1c1cccc(Cl)c1 (stereo not shown)
IC50: 273 µM

CCCCCCCCCCCCCCOc1c(O)cc(C(=O)O[C@@H]2Cc3c(O)cc(O)cc3O[C@@H]2c2cc(O)c(O)c(O)c2)cc1O
IC50 (absorbance; 1 h): 9.73 µM

CCCCn1cc(C(=O)O)c(=O)c2cc(F)c3c(nnn3-c3ccccc3OC)c21
IC50 (absorbance; 30 min): 7890 µM

CC(=O)C1=C(C)NC(=O)NC1c1ccc(F)cc1F (stereo not shown)
IC50: 35.6 µM

O=c1cc(-c2ccc(O)c(O)c2)oc2cc(O[C@@H]3O[C@H](CO)[C@@H](O)[C@H](O)[C@H]3O)cc(O)c12
IC50 (absorbance): 36.4 µg/mL

Oc1c(Cl)cc(Cl)c2cccnc12
IC50 (absorbance; 30 min): 336 µM

O=C1NC2=C(C(=O)N(c3ccc(Cl)cc3)C2)C(c2ccc(O)cc2)N1 (stereo not shown)
IC50 (absorbance): 0.61 µg/mL

C[C@@H]1O[C@@H](OC[C@H]2O[C@@H](Oc3c(-c4ccc(O)cc4)oc4cc(O[C@@H]5O[C@H](CO)[C@@H](O)[C@H](O)[C@H]5O)cc(O)c4c3=O)[C@H](O)[C@@H](O)[C@@H]2O)[C@H](O)[C@H](O)[C@H]1O
IC50 (absorbance): 398 µM

Cc1cc2nc(-c3ccco3)[nH]c2cc1C
IC50 (absorbance): 1.5 µM

CCCCSc1nnc(-c2ccc(C(C)(C)C)cc2)o1
IC50: 71.6 µM

CCCCn1cc(C(=O)O)c(=O)c2cc(F)c(Nc3ccc(OC)cc3)c([N+](=O)[O-])c21
IC50 (absorbance; 30 min): 71.6 µM

COc1ccc(-c2nn(-c3ccccc3)cc2/C=C(\C#N)c2nc3ccccc3[nH]2)cc1
IC50 (absorbance): 122 µM

COc1ccc(NCc2cc(=O)c(O)c[nH]2)cc1
IC50 (absorbance; 30 min): 21.4 µg/mL

Cc1ccc(-c2nc3ccccc3[nH]2)o1
IC50 (absorbance): 1.43 µM

COc1cc(CN2CCN(c3ccccc3Cl)CC2)c2cc3[n+](cc2c1O)CCc1cc2c(cc1-3)OCO2
IC50 (absorbance; 30 min): 16.9 µg/mL

Some of these lines once more:
CC(=O)C1=C(C)NC(=O)NC1c1ccc(F)cc1F (stereo not shown)
IC50: 35.6 µM

CCCCn1cc(C(=O)O)c(=O)c2cc(F)c(Nc3ccc(OC)cc3)c([N+](=O)[O-])c21
IC50 (absorbance; 30 min): 71.6 µM

CCCCSc1nnc(-c2ccccc2Cl)o1
IC50: 68.2 µM

CCCCSc1nnc(-c2ccccc2)o1
IC50: 62.1 µM

COc1cc(CN2CCN(c3ccc(C)cc3)CC2)c2cc3[n+](cc2c1O)CCc1cc2c(cc1-3)OCO2
IC50 (absorbance; 30 min): 19.3 µg/mL
